# Published values of several laboratories.
# A part holds a random share of what one study measured. Changes are numbered by the printed parent chain.

# Block 1
# Target: RING finger protein unkempt homolog, zinc fingers 1-6, GST-SBP tag (UNK, Homo sapiens, UniProt Q9C0B0, residues 30-357)
# Chain of UniProt Q9C0B0 (30-357, looked up): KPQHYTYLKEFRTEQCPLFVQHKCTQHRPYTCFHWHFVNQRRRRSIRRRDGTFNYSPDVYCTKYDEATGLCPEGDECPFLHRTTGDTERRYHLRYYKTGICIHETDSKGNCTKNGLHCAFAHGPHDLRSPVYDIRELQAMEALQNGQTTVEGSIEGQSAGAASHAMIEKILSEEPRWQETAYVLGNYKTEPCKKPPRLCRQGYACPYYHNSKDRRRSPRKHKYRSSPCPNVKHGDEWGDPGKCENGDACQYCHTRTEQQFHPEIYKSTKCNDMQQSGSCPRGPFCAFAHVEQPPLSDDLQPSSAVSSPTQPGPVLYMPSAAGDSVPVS
# Method: RNA Bind-n-Seq
# Molecule type: RNA
# Matrix: in vitro
# Concentration: not given
# Notes: RNA with constant flanks, human-mouse chimeric sites, ends assumed
# Reference: input RNA pool
# Direction: higher = stronger binding
Oligonucleotide,bound/input enrichment [ratio]
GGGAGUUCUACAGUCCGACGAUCGGAAGUACAAUGAUGGAGAUUGAUGGUGAUAAAGGCAAGCAGGGCGGGCCCACCUACUACAUAGACACCAAUGCCCUCCGCGUGCCCAGGGAGAACAUGGAGGCCAUCUCACCACUCAAGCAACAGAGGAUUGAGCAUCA,0.229
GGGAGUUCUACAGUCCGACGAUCUCUGGUCACACUCGUGUGUAUGGUGUUUGCUUUGUGGACACUUCACUGGGAAAGUUUUUCAUCGGCCAGUUUUCGGAUGACCGCCACUGUUCCAGAUUUAGGACGCUAGUGGCACACUAUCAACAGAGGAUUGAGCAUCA,0.158
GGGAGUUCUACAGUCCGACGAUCUCAGGAACCCAGACAAACAUGAAUGUAAAUGAAGUCAUUAGCAAUAGAGCAAUUGAAAUGUUAGGAGGUGAACUUGGCAGCAAGAAGCCUGUGCACCCCAAUGAUCAUGUUAACAAAAGCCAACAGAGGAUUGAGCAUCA,0.826
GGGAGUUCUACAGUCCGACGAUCAAAUCGUGUGUGUCAAAUAUUGAAAGUGCUUUAUCUACACUCCAGUAUGUAAGCAGUAUAGUAGUUUCUUUAGAGAAUAGGUCAGCCAUUGUAAAGUAUAAUGCAAGCUUAGUCACUCCACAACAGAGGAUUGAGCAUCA,14.6
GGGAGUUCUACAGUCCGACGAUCAUGGAACAUUUCGAUGCAUCACUUAGUACCUAUUUCAAGGCCUUCCUGGGCCCCCGAGAUACAAGAGUCAAAGGAUGGUUCCUCCUGGACAAUUACAUACCCACAUUUGUCUGUUCUGUUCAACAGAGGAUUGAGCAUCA,0.286
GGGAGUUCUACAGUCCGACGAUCUUUCUACUGCAGCAAACCAUGCUACGAAUUAAGGAUCCUAAGAAGUCCCUGGAUUUUUAUACGAGGGUUCUUGGACUGACCCUCCUGCAGAAGCUUGACUUCCCUGCUAUGAAGUUUUCGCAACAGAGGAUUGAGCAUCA,0.206
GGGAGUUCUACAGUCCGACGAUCCAGCUGCAGACAGAAAAGGAUGAAAAGGAGCUGUAUAAGGUACAUUUGAAGAAUACAGAAAUAGAAAAUACGAAGCUUGUGUCAGAGGUCCAGACUUUAAAGAAUUUAGAUGGAAACAAACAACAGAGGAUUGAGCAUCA,3.96

# Block 2
# Target: CCNE2, cyclin fold, Cln2 fusion (human)
# Method: yeast growth competition, sequencing
# Matrix: yeast
# Notes: weak parent motif
# Reference: not given
# Direction: higher = stronger binding
# Starting sequence: RB1 docking peptide (human); PKPLKKLRFDIEG
Variant,normalised enrichment score
G13W,0.832
K5C,0.0274
K2M,0.746
E12F,1.05
E12A,-0.181
E12V,-0.209
P1Q,0.75
K6F,0.298
G13M,1.14
K5L,-1.06
L7T,0.147

# Block 3
# Target: Phosphate system positive regulatory protein PHO4, full length, GST-tagged (PHO4, Saccharomyces cerevisiae, UniProt P07270, residues 1-312)
# Method: competition protein-binding microarray
# Molecule type: double-stranded DNA, one strand shown
# Matrix: in vitro
# Concentration: 2 µM
# Notes: whole 60-bp probe, lowest competitor level
# Added: Cbf1 competitor, 0.05 µM
# Direction: higher = stronger binding
# Residues (chain): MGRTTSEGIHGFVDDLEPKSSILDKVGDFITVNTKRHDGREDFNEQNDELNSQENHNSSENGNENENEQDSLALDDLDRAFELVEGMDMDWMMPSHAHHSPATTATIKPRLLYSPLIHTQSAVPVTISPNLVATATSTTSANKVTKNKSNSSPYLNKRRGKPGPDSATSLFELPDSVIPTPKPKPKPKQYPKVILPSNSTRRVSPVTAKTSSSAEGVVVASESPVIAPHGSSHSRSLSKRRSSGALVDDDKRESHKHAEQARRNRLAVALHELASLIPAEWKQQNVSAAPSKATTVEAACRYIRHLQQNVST
Oligonucleotide,fluorescence intensity [a.u.]
CATACCCAACCTTGCAATGTGGGTGAAGATATTTGTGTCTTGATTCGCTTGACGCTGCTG,6740
AACAATGGTCATAAACATGTGGTGAGCAATGTTTCAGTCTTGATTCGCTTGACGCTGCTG,10500
AAATTACTAAGTTGCATCGTGGGTGACGCCGTATGAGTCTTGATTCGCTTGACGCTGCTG,12500
ACCAGCTGTTCCCAGCACCTGACGATTACCGACCAGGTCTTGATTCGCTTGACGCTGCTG,4860
CCGGAAAAACCTGTTCGCGTGAGCCGAACAACTTTCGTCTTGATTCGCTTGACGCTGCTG,5030
TCCTTCTTACCTTGGCGCATGATGTTGTTTGTGATGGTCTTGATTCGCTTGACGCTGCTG,8490
TGCGCAACAACTTGTCACAAAACTTTATGTCTAGAAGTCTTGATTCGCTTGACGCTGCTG,2990
AAAGCGGTAATTTGTCACTCCACTTCACATATCTATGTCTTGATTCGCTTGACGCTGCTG,3690
CGGGGTTAAGTTTGCTTCGTGGGTGGCTTGCAGCAGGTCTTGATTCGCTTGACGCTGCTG,6710

# Further values, each from its own experiment
Substance,target,test,system,setting,scale,quantity,result
"PhoQ, residues 284 288 289 292 302 303 SMMNNA","PhoP, residues 12 14 15 18 19 SMASL (Escherichia coli, UniProt P23836)","Sort-seq, measured: YFP reporter",E. coli,"PhoQ-PhoP variant library, added: 10 µM Mg2+","reference: high Mg2+ state, higher = stronger signaling",fold induction,6.08

# For quick reference, copied from above (block 2):
Variant,normalised enrichment score
G13M,1.14
P1Q,0.75
